# Published values from different studies.
# Lines come from different studies, so protocols differ.
Structure (SMILES),test,test system,conditions,quantity,value
CN1CC[C@@H](c2c(O)cc(O)c3c(=O)cc(-c4ccc(C(F)(F)F)cc4Cl)oc23)[C@@H]1CO,item: Sepsis,relapsed B-cell malignancies,"oral, 150 mg, grade 3-4, intermittent dosing",patients with adverse event,0%
COc1ccc([C@@H](O)c2cc(-c3ncnc4cc(N5CCOCC5)ccc34)c(F)cc2Cl)nn1,,"patients, advanced solid tumours","oral, 300 mg twice daily, treatment-emergent, with: avelumab",gastrointestinal disorders incidence,4%
COc1ccnc(C(=O)N[C@H]2COC(=O)[C@H](Cc3ccccc3)[C@@H](OC(=O)C(C)C)[C@H](C)OC2=O)c1OCOC(=O)C(C)C,,silt loam soil,"organic carbon 1.0 %, pH 5.5",Freundlich adsorption coefficient Kf,9.36 mL/g
COc1ccc2nc3cc(Cl)ccc3c(Nc3cc(CN4CCCC4)c(O)c(CN4CCCC4)c3)c2n1,,"mouse, blood","intraperitoneal, 57 mg/kg",platelet distribution width,15.6%
CO[C@H]1C[C@@H]2CC[C@@H](C)[C@@](O)(O2)C(=O)C(=O)N2CCCC[C@H]2C(=O)O[C@H]([C@H](C)C[C@@H]2CC[C@@H](OC(=O)NCCOCCOCCOCCOCCOCCOCCOCCOCCC(=O)N3CCc4cc(Cn5nc(-c6ccc7oc(N)nc7c6)c6c(N)ncnc65)ccc4C3)[C@H](OC)C2)C[C@@H](O)[C@H](C)/C=C(\C)[C@@H](O)[C@@H](OC)C(=O)[C@H](C)C[C@H](C)/C=C/C=C/C=C/1C,,patients with advanced solid tumours,"intravenous, 12 mg weekly, any grade",AE leading to dose reduction,8.3%
COc1cc2c(Oc3ccc4[nH]c(C)cc4c3F)ccnc2cc1OCC1(N)CC1,,paediatric recurrent refractory sarcoma,8 mg,grade 1 or 2 Fever,0%
Cn1cncc1-c1c(F)cncc1NC(=O)c1c(N)nn2cc(F)cnc12,,human patients,"oral, 180 mg once daily, 21 days",dose-limiting toxicity platelet decrease,0%
CCC[C@@](N)(CO)CCc1ccc(OCCCCCC(C)C)cc1,,"hound dogs, male","oral, 20 mg/kg, capsule, fed state, geometric mean",AUC(0-last),21.7 µM·h
C=CC(=O)Nc1cc(Nc2nccc(Nc3cc(Cl)c(F)cc3C(C)(C)O)n2)c(OC)cc1N1CC[C@@H](N(C)C)C1,,human patients,"oral, 300 mg, treatment-emergent adverse events",patients with pneumonia,9.8%
O=C(Nc1ccccc1)C1CCN(C(=O)Oc2cccnc2)CC1,,healthy women,"oral, 100 mg, 9 days",adverse event Dyspnoea,7.7%
CCc1ccc(CC/C=C/c2ccc3c(c2)C(=O)CC3)cc1,,"Sprague-Dawley rat, female","oral, 30 mg/kg/day, 14 days",APTT,14.3 s
C[C@]1(CO)Cc2ncn(-c3ccc(C#N)c(Cl)c3)c2C(=O)O1,,healthy humans,"concentration not given, multiple dose part total",drug-related Fatigue incidence,2.2%
Cc1cc(C)c(CNC(=O)c2cc(Cl)c3c(c2C)O[C@@](C)([C@H]2CC[C@H](N(C)C)CC2)O3)c(=O)[nH]1,,relapsed/refractory NHL patients,"dose not given, trial, safety set, all TEAEs grade 5",incidence of tumour-associated fever,0%

# Repeated from above:
Structure (SMILES),test,test system,conditions,quantity,value
COc1cc2c(Oc3ccc4[nH]c(C)cc4c3F)ccnc2cc1OCC1(N)CC1,,paediatric recurrent refractory sarcoma,8 mg,grade 1 or 2 Fever,0%
